Measured values of several laboratories.
Every numbered part comes from another study and shows a few of its results, in no order. Substitutions count along the parent as printed.

Set 1 — target: CCNE2, cyclin fold, Cln2 fusion (human); method: yeast growth competition, sequencing; medium: yeast; notes: weak parent motif; baseline: not given; reading: higher = stronger binding
Starting sequence: CABLES2 docking peptide (human); ICAKRSLCAAFSV; partner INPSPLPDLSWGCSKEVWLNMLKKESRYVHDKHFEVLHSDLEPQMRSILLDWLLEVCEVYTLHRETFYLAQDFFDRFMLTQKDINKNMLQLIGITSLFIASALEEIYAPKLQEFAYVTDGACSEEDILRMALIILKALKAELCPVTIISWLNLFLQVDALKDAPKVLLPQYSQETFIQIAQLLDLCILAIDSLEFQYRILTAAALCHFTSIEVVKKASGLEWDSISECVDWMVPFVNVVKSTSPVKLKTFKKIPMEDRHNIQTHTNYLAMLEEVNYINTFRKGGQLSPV
`C2A`: “normalised enrichment score” -0.0705.
For `C8A`, “normalised enrichment score” read 0.499.
`I1A`: “normalised enrichment score” 0.478.
`V13A` — result for “normalised enrichment score”: 0.906.
For `F11A`, “normalised enrichment score” read 0.217.

Set 2 — method: RNA Bind-n-Seq; molecule type: RNA; medium: in vitro; concentration: 200 nM; notes: whole 134-nt RNA, ends assumed; together with: 150 mM KCl; baseline: input library; reading: higher = stronger binding
Target: Ras GTPase-activating protein-binding protein 1, full length (G3BP1, Homo sapiens, UniProt Q13283)
Chain of UniProt Q13283 (whole entry, looked up): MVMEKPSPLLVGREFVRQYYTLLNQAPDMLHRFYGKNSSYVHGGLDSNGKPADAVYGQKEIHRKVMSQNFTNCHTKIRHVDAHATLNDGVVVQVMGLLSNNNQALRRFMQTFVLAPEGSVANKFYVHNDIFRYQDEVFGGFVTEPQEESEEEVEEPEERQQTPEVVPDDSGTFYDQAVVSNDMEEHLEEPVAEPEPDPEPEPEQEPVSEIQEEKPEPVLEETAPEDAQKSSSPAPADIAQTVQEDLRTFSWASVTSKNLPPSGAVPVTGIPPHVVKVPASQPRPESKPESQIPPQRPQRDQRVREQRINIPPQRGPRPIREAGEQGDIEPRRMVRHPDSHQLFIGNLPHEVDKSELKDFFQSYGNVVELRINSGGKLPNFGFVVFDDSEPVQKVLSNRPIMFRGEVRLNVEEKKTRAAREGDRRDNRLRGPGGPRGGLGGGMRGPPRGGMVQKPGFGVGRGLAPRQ
With `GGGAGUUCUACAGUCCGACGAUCCAAGUCCUGUGCUACACAUCGUAUGUACCGAAUCGGCCCCGGCCCCGGGCCCCGGAAAGUAUUAUGUUACGCCGUUCGGAUCUGCACUUCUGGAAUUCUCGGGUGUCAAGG` the log2 enrichment was -0.704.
For `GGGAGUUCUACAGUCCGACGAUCAAGUCCUGUGCUACACAUCGUAUGUACCGAAUCGGUGGAAAAAAAGGUUUUUUUGGAAAGUAUUAUGUUACGCCGUUCGGAUCUGCACUUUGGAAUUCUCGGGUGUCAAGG`, the log2 enrichment was -1.53.
The log2 enrichment of `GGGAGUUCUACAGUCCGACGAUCCUCAAGUCCUGUGCUACACAUCGUAUGUACCGAAUCGGGCCGGCCGGGCCGGGAAAGUAUUAUGUUACGCCGUUCGGAUCUGCACUUCCAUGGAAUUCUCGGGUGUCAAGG` is reported as -0.167.
The log2 enrichment of `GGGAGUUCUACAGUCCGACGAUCCCCAGACAACACGCACCCACACAGACACAGAGGGAAGGGGUUGGGAUGGGGACAGGGUGCACAGCAGGGCGGGGUAGGACCCCAGCCCCUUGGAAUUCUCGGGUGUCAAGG` is reported as 1.9.
`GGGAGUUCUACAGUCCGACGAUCUCCCUAUUCCAGUCAUACACGUGGACCUAACUGCACCAGUAGCUUUUCUGAGAAUACUUGCUGAAAAGGAAGUUUUCUGGAAUGGGUAAGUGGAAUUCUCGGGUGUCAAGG` has a log2 enrichment of -0.459.
`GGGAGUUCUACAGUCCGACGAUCAGUCCUGUGCUACACAUCGUAUGUACCGAAUCGGUUUUUGGGUUUUUGGGUUUUUGGGAAAGUAUUAUGUUACGCCGUUCGGAUCUGCACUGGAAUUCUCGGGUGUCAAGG` gave a log2 enrichment of -1.
The log2 enrichment of `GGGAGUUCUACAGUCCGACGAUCGCAGGAAGUAAAAACAAAUAGAAAUGCUUCGGAUAGUGGCAGGGGUGGGGGUUGCUAAGGAAAGGGUGGGAUGGGAGUGGGUAAAGAGUUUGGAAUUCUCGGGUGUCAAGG` is reported as 0.872.
For `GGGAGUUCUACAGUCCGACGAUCACCAUGCAGGUGGGCAUCUUUGGGAAGUGGGGCAAUGGGGGGAUAGGGAGGGGGGUAACACUUUGGGAACAGGUGGUCCCAGGUCGUUUCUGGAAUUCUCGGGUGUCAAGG`, the log2 enrichment was 1.
`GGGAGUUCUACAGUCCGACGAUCGUCCUGUGCUACACAUCGUAUGUACCGAAUCGGCCCCCCGGCCCCCCGGGGCCCCCCGGAAAGUAUUAUGUUACGCCGUUCGGAUCUGCAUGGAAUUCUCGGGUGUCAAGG` gave a log2 enrichment of -0.169.

Set 3 — method: protein binding microarray; molecule type: double-stranded DNA, one strand shown; medium: in vitro; concentration: not given; baseline: not given; reading: higher = stronger binding
Target: Histone acetyltransferase KAT6A, both winged helices, GST fusion (KAT6A, Homo sapiens, UniProt Q92794, residues 1-181)
Notes: 8-mer, flanks averaged, mean of 2 arrays, mostly near background
Target sequence (chain): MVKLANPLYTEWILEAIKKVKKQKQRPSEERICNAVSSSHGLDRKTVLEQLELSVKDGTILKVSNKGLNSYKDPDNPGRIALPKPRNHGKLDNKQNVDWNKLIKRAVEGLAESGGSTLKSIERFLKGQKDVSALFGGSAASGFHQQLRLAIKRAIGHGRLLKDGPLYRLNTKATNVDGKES
With `CAGGACTG` the E-score was -0.167.
With `AGTGTAAG` the E-score was -0.133.
`AACTATCC` gave an E-score of 0.00707.
`AAGGGCTG` has an E-score of -0.142.
For `CGAGTTCA`, the E-score was -0.135.
The E-score of `AGCGACCC` is reported as 0.0956.
`CGCTTGAA` gave an E-score of 0.172.
`AGCGCACA` has an E-score of 0.133.
`GACTAAGC` gave an E-score of 0.00373.
With `TTGAGAAA` the E-score was -0.202.
With `GCAAGCGA` the E-score was 0.0956.
`AAGCCTAT` gave an E-score of -0.051.
With `GATCATTA` the E-score was -0.0128.
The E-score of `CCCCGAAG` is reported as 0.0667.
For `ATAGTCGA`, the E-score was -0.13.
For `ACGCGCCA`, the E-score was 0.197.
For `AGCATACC`, the E-score was -0.145.
`AAAGGTGG` has an E-score of -0.0789.

Set 4 — method: RNAcompete; molecule type: RNA; medium: in vitro; concentration: 20 nM; notes: 7-mer, probes averaged, single round; baseline: mean of 7-mers; reading: higher = stronger binding
Target: PABPC1L2, full length, GST fusion (mouse, UniProt A0ABA7IW68)
Construct (chain): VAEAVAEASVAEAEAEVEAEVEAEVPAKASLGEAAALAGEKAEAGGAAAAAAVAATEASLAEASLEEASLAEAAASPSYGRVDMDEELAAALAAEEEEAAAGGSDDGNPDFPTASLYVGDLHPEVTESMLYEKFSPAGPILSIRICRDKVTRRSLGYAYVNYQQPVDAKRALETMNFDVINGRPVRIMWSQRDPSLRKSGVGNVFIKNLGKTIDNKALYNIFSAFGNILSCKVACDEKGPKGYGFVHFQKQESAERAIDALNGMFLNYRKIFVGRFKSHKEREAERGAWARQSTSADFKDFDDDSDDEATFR
`GACGAGA` has a 7-mer Z-score of 0.233.
For `CCACUUG`, the 7-mer Z-score was -0.208.
`CCACCUA` has a 7-mer Z-score of -0.403.
The 7-mer Z-score of `GGUGUCU` is reported as -0.112.
`AGAAGUU` gave a 7-mer Z-score of -0.126.
The 7-mer Z-score of `UGUGUGA` is reported as -0.273.
For `UUAAAUA`, the 7-mer Z-score was 1.15.
`AAUGUUA` gave a 7-mer Z-score of 0.0642.
For `UGGGACC`, the 7-mer Z-score was -0.0609.
With `GUGCGCA` the 7-mer Z-score was -0.00652.
For `CUGAUUU`, the 7-mer Z-score was -0.117.
For `CGUGCAC`, the 7-mer Z-score was -0.322.
The 7-mer Z-score of `CGCAAGA` is reported as -0.0391.
`CCGCGGG` gave a 7-mer Z-score of -0.324.
The 7-mer Z-score of `UAACUAU` is reported as -0.0899.
With `CGCUCCG` the 7-mer Z-score was -0.374.
The 7-mer Z-score of `CUAGAGU` is reported as -0.396.
With `GUCCGCU` the 7-mer Z-score was -0.345.
The 7-mer Z-score of `GAAAGCC` is reported as -0.0264.
For `UCAUUCA`, the 7-mer Z-score was -0.186.
`GCAUCAG` has a 7-mer Z-score of 0.175.
The 7-mer Z-score of `CUUGUAA` is reported as -0.101.

Set 5 — method: protein-binding microarray; molecule type: double-stranded DNA, one strand shown; medium: in vitro; concentration: 2200 nM top; notes: 60-bp whole probe; together with: salmon DNA 0.4 mg/ml; baseline: random background probes; reading: higher = stronger binding; shared flanks, not repeated: GCCTAGCAC … GTCTTGATTCGCTTGACGCTGCTG
Target: Interferon regulatory factor 7, full length, phosphomimetic (IRF7, Homo sapiens, UniProt Q92985, residues 1-503, S471D/S472D/S475D/S476D/S477D/S483D/S484D/S487D)
Residues (chain): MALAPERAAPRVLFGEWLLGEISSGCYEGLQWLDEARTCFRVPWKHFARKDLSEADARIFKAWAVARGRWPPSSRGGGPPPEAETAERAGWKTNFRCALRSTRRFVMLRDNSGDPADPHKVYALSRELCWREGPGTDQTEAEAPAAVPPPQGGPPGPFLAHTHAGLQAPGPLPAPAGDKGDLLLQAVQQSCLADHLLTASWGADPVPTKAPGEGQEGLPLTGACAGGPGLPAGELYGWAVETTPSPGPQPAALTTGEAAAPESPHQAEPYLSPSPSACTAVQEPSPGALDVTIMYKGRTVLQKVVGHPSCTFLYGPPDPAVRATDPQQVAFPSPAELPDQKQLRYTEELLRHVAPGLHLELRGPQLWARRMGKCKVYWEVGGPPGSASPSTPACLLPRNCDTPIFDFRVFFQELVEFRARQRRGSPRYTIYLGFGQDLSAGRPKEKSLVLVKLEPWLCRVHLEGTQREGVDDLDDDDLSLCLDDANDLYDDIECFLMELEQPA
For `GACAGTATCCTACTGCTGACGTGCTAG`, “fitted relative affinity” read 0.678 z-score.
`TCACATGTTGCTCTCCGACTGTGCTAG`: “fitted relative affinity” 1.85 z-score.
For `GACGGTTTCGCTTTCGGGACGTGCTAG`, “fitted relative affinity” read 13.4 z-score.
`GACTATCTCAGACTGGAGACGTGCTAG`: “fitted relative affinity” 0.113 z-score.
`TTTGATATCGGGTTTCGATTAGTGCTA`: “fitted relative affinity” 3.13 z-score.
Under “fitted relative affinity”, `GACGATATCTGACTGGAGACGTGCTAG` is recorded as 0.186 z-score.
`TTAGGACTTCTTTTCCTTTAGTGCTAG`: “fitted relative affinity” 1.11 z-score.
Under “fitted relative affinity”, `CAGCATGCCTGTCCCTGGGTGTGCTAG` is recorded as -0.443 z-score.
`TTGTATCTGGGTTCCCCCCCGTGCTAG`: “fitted relative affinity” 0.171 z-score.
For `TGAGATCTCAGTCTCGATTAGTGCTAG`, “fitted relative affinity” read 0.392 z-score.
`CCACACACCATTCTCGGGACGTGCTAG`: “fitted relative affinity” 1.24 z-score.
`ATGCTTCTGTATTCATGAAGGTGCTAG` — result for “fitted relative affinity”: 1.04 z-score.
For `GACGGACTTGGACTGGGGACGTGCTAG`, “fitted relative affinity” read -0.678 z-score.
For `GACGGACTGGGGTCTCGGGACGTGCTA`, “fitted relative affinity” read -0.824 z-score.
`TTAGACTTCAGTTCCGATTAGTGCTAG` — result for “fitted relative affinity”: 0.776 z-score.
`TCAATTTTTACTTTCTGACTGTGCTAG` — result for “fitted relative affinity”: 3.08 z-score.
Under “fitted relative affinity”, `TTAGGTATCGTCTATCGGTTAGTGCTA` is recorded as 0.513 z-score.
Under “fitted relative affinity”, `TTAGGACTGGTTTTCGGTTAGTGCTAG` is recorded as 4.67 z-score.
For `TTAGGTTTCGTACTGGGTTAGTGCTAG`, “fitted relative affinity” read 3.4 z-score.

Excerpt of the above (set 5):
`CCACACACCATTCTCGGGACGTGCTAG`: “fitted relative affinity” 1.24 z-score.
For `GACGGTTTCGCTTTCGGGACGTGCTAG`, “fitted relative affinity” read 13.4 z-score.
`ATGCTTCTGTATTCATGAAGGTGCTAG` — result for “fitted relative affinity”: 1.04 z-score.
Under “fitted relative affinity”, `TTAGGTATCGTCTATCGGTTAGTGCTA` is recorded as 0.513 z-score.
For `GACGGACTTGGACTGGGGACGTGCTAG`, “fitted relative affinity” read -0.678 z-score.
`TTAGACTTCAGTTCCGATTAGTGCTAG` — result for “fitted relative affinity”: 0.776 z-score.
`TTGTATCTGGGTTCCCCCCCGTGCTAG`: “fitted relative affinity” 0.171 z-score.
`TTAGGACTTCTTTTCCTTTAGTGCTAG`: “fitted relative affinity” 1.11 z-score.
Under “fitted relative affinity”, `CAGCATGCCTGTCCCTGGGTGTGCTAG` is recorded as -0.443 z-score.
